Measured values collected from several papers.
Protocols differ between the studies behind these lines. ± gives the spread as reported.
UCHL1: Ubiquitin carboxyl-terminal hydrolase isozyme L1 (UCHL1, Homo sapiens, UniProt P09936)
Chain of UniProt P09936 (whole entry, looked up): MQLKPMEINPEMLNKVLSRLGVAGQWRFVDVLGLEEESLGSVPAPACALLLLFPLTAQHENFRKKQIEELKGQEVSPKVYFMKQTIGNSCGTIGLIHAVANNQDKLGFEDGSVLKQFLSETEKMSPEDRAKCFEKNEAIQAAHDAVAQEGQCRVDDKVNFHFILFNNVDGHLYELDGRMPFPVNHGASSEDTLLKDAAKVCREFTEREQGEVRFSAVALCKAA

CC(=NN=c1sc(N=Nc2ccc(C)cc2)c(C)n1C)c1c(O)c2ccccc2oc1=O
selectivity index (HepG2; cell growth, MTT; relative to: IC50 BJ-1 over HepG2): > 1.34

CN(CCOc1ccc(CC2SC(=O)NC2=O)cc1)c1ccccn1 (stereo not shown)
point of departure (HepG2; extracellular flux, refers to: reserve respiratory capacity; 6 h, distribution mode 1): 0.0708 µM

O=C(Nc1ccccc1)C12CC3CC(C1)CC(n1cnc([N+](=O)[O-])n1)(C3)C2
inhibition (Trypanosoma cruzi; reporter translation, Renilla luciferase mRNA translation; cell-free extract; 40 µM; relative to: DMSO): -5.7%

CC(=NN=C1NC(=O)C(C)S1)c1c(O)c2ccccc2oc1=O (stereo not shown)
selectivity index (HepG2; cell growth, MTT; relative to: IC50 BJ-1 over HepG2): > 2.36

N#C[C@@]1(c2ccc3c(N)ncnn23)O[C@H](CO)[C@@H](O)[C@H]1O
mitochondrial DNA content (HepG2; qPCR; 100 µM, 10 days, 3; relative to: untreated): 83.3 ± 11.7%

CCn1c(C)c(C(C)=O)sc1=NN=C(C)c1c(O)c2ccccc2oc1=O
selectivity index (HepG2; cell growth, MTT; relative to: IC50 BJ-1 over HepG2): > 1.6

O=C1C(=O)N(CCn2ncc3c(=O)[nH]cnc32)c2ccccc21
IC50 (HepG2; cell growth, SRB; 72 h): 46.4 ± 4.67 µg/mL

CCOC(=O)c1cccc(NC(=O)c2sc(Cl)cc2S(=O)(=O)N(C)c2ccc(OCC)cc2)c1
EC50 (HepG2; SRE promoter reporter, activator, luciferase reporter): 4.3 µM

CC(=O)c1nn(-c2ccc(Cl)cc2)/c(=N/N=C(\C)c2ccc(NC(=O)c3ccc(Cl)cc3)cc2)s1
toxicity (HepG2; 0.625 µM): 1.86%

CC(C)(C)c1cc(O)ccc1O
point of departure (HepG2; extracellular flux, refers to: oxygen consumption rate; 24 h, representative mode): 162 µM

CCCCCNC(=O)N1CCC(CN(Cc2ccc(Cl)cc2)Cc2ccc([N+](=O)[O-])s2)C1 (stereo not shown)
decrease of effect (HepG2; qPCR, refers to: BMAL1 mRNA; concentration not given; relative to: REV-ERBα/β siRNA over control siRNA): 85%

COc1ccc2nc(N3CCOCC3)c(-c3cc(-c4cccc(O)c4)nc4[nH]nc(N)c34)cc2c1
selectivity ratio (HepG2; MTT; relative to: WI-38 EC50 over HepG2 IC50): 1.71

c1cnc2c(c1)ccc1cccnc12
IL-1β mRNA level (HepG2; 25 µg/mL; relative to: untreated): decreased

O=C(O)Cc1ccccc1Nc1c(Cl)cccc1Cl
point of departure (HepG2; refers to: BiP protein; 24 h, distribution mode 2): 794 µM

COc1ccc(-n2nc(C(C)=O)s/c2=N\N=C(/C)c2ccc(NC(=O)c3ccccc3)cc2)cc1
toxicity (HepG2; 2.5 µM): 97.2%

CCOC(=O)[C@H](Cc1ccccc1)NC(=O)c1cc(Cl)c(OCCN2CCN(C)CC2)c(Cl)c1O.Cl.Cl
genes with significant APA change (HepG2; PAS-seq; 20 µM, 4 h): 921 genes

CCS(=O)(=O)c1nc(S(=O)(=O)c2ccccc2Cl)c(N2CC3(CC3)C2)s1
EC50 (HepG2; Nrf2 activation, activator): > 13.2 µM

CCOC(=O)c1cc(Cl)cc(NC(=O)c2sc(Cl)cc2S(=O)(=O)N(C)c2ccc(OCC)c(OC)c2)c1
EC50 (HepG2; SRE promoter reporter, activator, luciferase reporter): 0.19 µM

CC(=O)c1sc(=NN=C(C)c2c(O)c3ccccc3oc2=O)[nH]c1C
selectivity index (HepG2; cell growth, MTT; relative to: IC50 BJ-1 over HepG2): > 2.05

COc1ccc(NC(=O)c2c(Nc3ccccc3)sc(C(=O)NN=Cc3ccc(OC)c(O)c3)c2NC(C)=O)cc1
active caspase-7 level (HepG2; ELISA; IC50, 24 h): 212 ± 20.9 pg/mL

N#CC(C#N)=C(N)C1(C#N)OC1c1ccc(F)cc1 (stereo not shown)
labelling (UCHL1; covalent, intact protein LC-MS; 12.5 µM): 26.5%

CCCOc1nc(-c2cccc(O)c2)cc(-c2cc3cc(Cl)ccc3nc2N2CCOCC2)c1C#N
selectivity ratio (HepG2; MTT; relative to: WI-38 EC50 over HepG2 IC50): 0.726

COc1cnc2cccc(N3CCc4c(cc(Cn5ccnc5C)cc4-c4cn(C)nc4C(F)(F)F)C3=O)c2c1
EC50 (HepG2; cell growth, inhibitor; 120 h): 4.56 µM

CCOC(=O)c1nn(-c2cccc(Cl)c2)/c(=N/N=C(\C)c2ccc(NC(=O)c3ccc(Cl)cc3)cc2)s1
cytotoxicity (HepG2; MTT; 5 µM): 97.4%

CCOC(=O)/C=C\C(=O)OCC
point of departure (HepG2; high content imaging, refers to: cell count; 24 h, distribution mode 2): 263 µM

COc1ccc(-n2nc(C(C)=O)s/c2=N\N=C(/C)c2ccc(NC(=O)c3ccc(Cl)cc3)cc2)cc1
viability (HepG2; 5 µM): 6.13%

N[C@@H](COCC(=O)N1CCC[C@H](C(=O)NCc2nc(-c3ccc(C(F)(F)F)cc3)cs2)C1)c1ccccc1
EC50 (HepG2; cytotoxicity): ~20 µM

CC(=NN=c1[nH]c(C)c(N=Nc2ccc(C)cc2)s1)c1c(O)c2ccccc2oc1=O
selectivity index (HepG2; cell growth, MTT; relative to: IC50 BJ-1 over HepG2): > 1.75

Nc1ccn([C@H]2CC[C@@H](CO)O2)c(=O)n1
mitochondrial DNA content (HepG2; qPCR; 20.0 µM, 10 days, 2; relative to: untreated): 12.2 ± 2.8%

Nc1ncnc2c1ncn2CCN1C(=O)C(=O)c2cc(Cl)ccc21
IC50 (HepG2; cell growth, SRB; 72 h): 2.05 ± 1.25 µg/mL

CC(=O)c1nn(-c2ccc(Cl)cc2)/c(=N/N=C(\C)c2ccc(NC(=O)c3ccc(C)cc3)cc2)s1
viability (HepG2; 0.078 µM): 79.1%

CC(C)Cc1ccc([C@@H](C)[C@@H](O)CC(C)C)cc1 (racemic)
cells killed (HepG2; 250 µM, 48 h): 88%

CCc1ccc(CCOc2ccc(CC3SC(=O)NC3=O)cc2)nc1 (stereo not shown)
point of departure (HepG2; MTT, refers to: MTT response; 24 h, distribution mode 1): 0.457 µM

CCOC(=O)c1nn(-c2cccc(Cl)c2)/c(=N/N=C(\C)c2ccc(NC(=O)c3ccccc3)cc2)s1
cytotoxicity (HepG2; MTT; 2.5 µM): 97.2%

CCn1c(C)csc1=NN=C(C)c1c(O)c2ccccc2oc1=O
selectivity index (HepG2; cell growth, MTT; relative to: IC50 BJ-1 over HepG2): > 1.47

CC(NC(=O)C(C#N)=Cc1ccccc1F)c1ccccc1 (stereo not shown)
labelling (UCHL1; covalent, intact protein LC-MS; 12.5 µM): 34%

CC(=O)Nc1ccc(/C(C)=N/N=c2\sc(C(C)=O)nn2-c2ccc(C)cc2)cc1
cytotoxicity (HepG2; MTT; 1.25 µM): 0.182%

C[S+](C)[O-]
PI-positive cells (HepG2; propidium iodide staining; 20%, 24 h): > 90%

COc1ccc(NC(=O)c2c(Nc3ccccc3)sc(C#N)c2NC(=O)CNc2ccc(Cl)cc2)cc1
active caspase-3 level (HepG2; ELISA; IC50, 24 h): 321 ± 24.8 pg/mL

CC(=O)c1nn(-c2ccccc2Cl)/c(=N/N=C(\C)c2ccc(NC(=O)c3ccccc3)cc2)s1
cytotoxicity (HepG2; MTT; 2.5 µM): 93.9%

Cc1nc2ccccc2n(CC(=O)Nc2ccc(C(=O)Nc3cccc(Cl)c3)cc2)c1=O
early apoptotic cells (HepG2; Annexin V-FITC/PI staining; 2.3 µM; relative to: untreated control): > 4 fold

CC(=O)c1nn(-c2ccc(C)cc2)/c(=N/N=C(\C)c2ccc(NC(=O)c3ccccc3)cc2)s1
cytotoxicity (HepG2; MTT; 0.156 µM): 71.5%

OC[C@H]1O[C@@H](n2cnc3c(O)nc(O)nc32)[C@H](O)[C@@H]1O
IC50 (HepG2; cell viability, MTT; 24 h): 3560 µM

For quick reference, copied from above:
COc1ccc2nc(N3CCOCC3)c(-c3cc(-c4cccc(O)c4)nc4[nH]nc(N)c34)cc2c1
selectivity ratio (HepG2; MTT; relative to: WI-38 EC50 over HepG2 IC50): 1.71

c1cnc2c(c1)ccc1cccnc12
IL-1β mRNA level (HepG2; 25 µg/mL; relative to: untreated): decreased

O=C(O)Cc1ccccc1Nc1c(Cl)cccc1Cl
point of departure (HepG2; refers to: BiP protein; 24 h, distribution mode 2): 794 µM

COc1ccc(-n2nc(C(C)=O)s/c2=N\N=C(/C)c2ccc(NC(=O)c3ccccc3)cc2)cc1
toxicity (HepG2; 2.5 µM): 97.2%

CCOC(=O)[C@H](Cc1ccccc1)NC(=O)c1cc(Cl)c(OCCN2CCN(C)CC2)c(Cl)c1O.Cl.Cl
genes with significant APA change (HepG2; PAS-seq; 20 µM, 4 h): 921 genes

CCS(=O)(=O)c1nc(S(=O)(=O)c2ccccc2Cl)c(N2CC3(CC3)C2)s1
EC50 (HepG2; Nrf2 activation, activator): > 13.2 µM

CCOC(=O)c1cc(Cl)cc(NC(=O)c2sc(Cl)cc2S(=O)(=O)N(C)c2ccc(OCC)c(OC)c2)c1
EC50 (HepG2; SRE promoter reporter, activator, luciferase reporter): 0.19 µM
